Measured values pooled from the literature.
Numbered parts are unrelated; each lists some results of a single study. Values joined by “and” are separate records of one study, mostly repeats; a detail may differ.
Chain of UniProt Q9H093 (whole entry, looked up): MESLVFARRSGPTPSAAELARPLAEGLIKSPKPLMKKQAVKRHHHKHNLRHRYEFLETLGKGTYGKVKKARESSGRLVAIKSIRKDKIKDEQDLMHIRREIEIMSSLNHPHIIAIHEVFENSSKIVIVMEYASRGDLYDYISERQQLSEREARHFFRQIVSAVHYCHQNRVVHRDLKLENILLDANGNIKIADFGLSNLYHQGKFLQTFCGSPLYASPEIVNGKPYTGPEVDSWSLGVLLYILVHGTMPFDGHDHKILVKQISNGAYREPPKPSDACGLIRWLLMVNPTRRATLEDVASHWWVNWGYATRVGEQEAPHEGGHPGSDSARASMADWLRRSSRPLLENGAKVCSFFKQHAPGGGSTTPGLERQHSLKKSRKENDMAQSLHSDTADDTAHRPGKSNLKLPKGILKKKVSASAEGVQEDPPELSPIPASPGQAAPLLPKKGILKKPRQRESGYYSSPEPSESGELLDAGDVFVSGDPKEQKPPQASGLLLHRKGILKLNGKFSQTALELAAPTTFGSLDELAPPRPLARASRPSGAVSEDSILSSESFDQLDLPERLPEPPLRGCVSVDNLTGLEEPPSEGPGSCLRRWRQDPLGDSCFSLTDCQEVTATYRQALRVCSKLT
Chain of UniProt Q9UK32 (whole entry, looked up): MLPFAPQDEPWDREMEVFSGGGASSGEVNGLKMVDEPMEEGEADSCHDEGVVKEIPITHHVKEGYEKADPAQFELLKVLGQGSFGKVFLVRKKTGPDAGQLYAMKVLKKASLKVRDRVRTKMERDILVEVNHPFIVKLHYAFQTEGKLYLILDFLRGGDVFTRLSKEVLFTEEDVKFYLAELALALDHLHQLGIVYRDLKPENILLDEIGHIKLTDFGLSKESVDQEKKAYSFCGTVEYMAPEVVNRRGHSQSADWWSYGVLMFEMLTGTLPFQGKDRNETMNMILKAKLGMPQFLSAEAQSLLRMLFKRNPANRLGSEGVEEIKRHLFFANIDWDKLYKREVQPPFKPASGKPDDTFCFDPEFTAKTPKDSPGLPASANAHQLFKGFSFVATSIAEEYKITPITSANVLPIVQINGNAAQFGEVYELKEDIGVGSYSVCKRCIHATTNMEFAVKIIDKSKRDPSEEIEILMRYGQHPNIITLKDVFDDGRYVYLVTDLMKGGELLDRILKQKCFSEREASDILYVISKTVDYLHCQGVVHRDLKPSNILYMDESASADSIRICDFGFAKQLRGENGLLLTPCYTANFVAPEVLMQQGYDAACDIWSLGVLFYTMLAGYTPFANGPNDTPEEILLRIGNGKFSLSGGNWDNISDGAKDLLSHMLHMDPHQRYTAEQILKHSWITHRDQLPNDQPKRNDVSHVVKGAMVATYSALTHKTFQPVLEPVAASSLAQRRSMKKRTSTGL
Chain of UniProt P23458 (whole entry, looked up): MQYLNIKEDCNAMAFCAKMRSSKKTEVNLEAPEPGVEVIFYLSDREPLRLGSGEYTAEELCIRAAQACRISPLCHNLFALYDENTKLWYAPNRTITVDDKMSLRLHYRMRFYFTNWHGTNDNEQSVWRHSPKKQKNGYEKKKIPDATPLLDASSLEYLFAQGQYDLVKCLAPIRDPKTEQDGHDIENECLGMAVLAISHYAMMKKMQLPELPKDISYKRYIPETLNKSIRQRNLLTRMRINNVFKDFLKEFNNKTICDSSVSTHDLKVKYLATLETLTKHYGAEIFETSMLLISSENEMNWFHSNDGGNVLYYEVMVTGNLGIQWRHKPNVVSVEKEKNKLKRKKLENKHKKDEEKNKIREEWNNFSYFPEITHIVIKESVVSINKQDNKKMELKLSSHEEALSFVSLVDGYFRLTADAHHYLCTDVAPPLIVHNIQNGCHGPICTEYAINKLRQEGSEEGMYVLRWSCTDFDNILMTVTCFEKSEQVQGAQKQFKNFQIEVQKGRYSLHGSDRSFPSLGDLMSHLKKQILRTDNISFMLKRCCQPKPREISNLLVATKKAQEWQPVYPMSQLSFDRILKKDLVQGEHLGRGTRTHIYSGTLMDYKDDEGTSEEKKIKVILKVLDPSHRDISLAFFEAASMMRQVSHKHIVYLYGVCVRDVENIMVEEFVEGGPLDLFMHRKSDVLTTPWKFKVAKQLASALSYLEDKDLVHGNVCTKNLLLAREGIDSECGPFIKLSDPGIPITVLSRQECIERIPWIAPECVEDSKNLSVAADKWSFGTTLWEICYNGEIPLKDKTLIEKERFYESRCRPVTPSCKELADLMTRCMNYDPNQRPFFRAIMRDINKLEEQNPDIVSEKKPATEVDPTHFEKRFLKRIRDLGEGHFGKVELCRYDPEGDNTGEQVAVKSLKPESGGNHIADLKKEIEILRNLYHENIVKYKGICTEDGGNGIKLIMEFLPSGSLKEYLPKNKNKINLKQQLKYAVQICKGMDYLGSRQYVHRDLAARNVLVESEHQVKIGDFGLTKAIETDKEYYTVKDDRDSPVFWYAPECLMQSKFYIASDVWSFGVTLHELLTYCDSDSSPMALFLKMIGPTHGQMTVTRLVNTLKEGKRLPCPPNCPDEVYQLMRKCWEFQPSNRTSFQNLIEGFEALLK
Chain of UniProt Q7L7X3 (whole entry, looked up): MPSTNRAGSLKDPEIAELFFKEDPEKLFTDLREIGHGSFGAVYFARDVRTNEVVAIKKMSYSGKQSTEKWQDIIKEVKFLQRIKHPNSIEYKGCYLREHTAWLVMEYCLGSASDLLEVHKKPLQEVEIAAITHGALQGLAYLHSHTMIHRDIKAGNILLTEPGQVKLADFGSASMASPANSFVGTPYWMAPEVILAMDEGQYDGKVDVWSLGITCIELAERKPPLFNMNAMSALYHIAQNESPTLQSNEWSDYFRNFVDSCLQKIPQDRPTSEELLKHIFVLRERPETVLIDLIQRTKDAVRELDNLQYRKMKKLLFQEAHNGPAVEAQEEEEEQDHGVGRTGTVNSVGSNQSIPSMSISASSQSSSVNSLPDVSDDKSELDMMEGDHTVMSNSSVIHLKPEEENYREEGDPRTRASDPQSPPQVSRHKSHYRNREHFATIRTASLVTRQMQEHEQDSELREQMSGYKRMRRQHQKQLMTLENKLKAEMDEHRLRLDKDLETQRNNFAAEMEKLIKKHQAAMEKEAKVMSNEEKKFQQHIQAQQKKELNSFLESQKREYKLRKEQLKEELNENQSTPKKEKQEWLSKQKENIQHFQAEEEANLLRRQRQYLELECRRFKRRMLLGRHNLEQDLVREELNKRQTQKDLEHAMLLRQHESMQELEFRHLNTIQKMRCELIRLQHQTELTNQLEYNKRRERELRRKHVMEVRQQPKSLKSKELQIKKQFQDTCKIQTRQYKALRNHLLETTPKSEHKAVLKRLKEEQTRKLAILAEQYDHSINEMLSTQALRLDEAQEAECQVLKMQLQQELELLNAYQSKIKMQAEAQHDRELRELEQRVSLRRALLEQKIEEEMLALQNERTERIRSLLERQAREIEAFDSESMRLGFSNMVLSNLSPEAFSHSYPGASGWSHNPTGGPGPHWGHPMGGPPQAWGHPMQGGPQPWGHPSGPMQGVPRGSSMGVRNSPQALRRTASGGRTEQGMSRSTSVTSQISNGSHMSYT
Chain of UniProt P19784 (whole entry, looked up): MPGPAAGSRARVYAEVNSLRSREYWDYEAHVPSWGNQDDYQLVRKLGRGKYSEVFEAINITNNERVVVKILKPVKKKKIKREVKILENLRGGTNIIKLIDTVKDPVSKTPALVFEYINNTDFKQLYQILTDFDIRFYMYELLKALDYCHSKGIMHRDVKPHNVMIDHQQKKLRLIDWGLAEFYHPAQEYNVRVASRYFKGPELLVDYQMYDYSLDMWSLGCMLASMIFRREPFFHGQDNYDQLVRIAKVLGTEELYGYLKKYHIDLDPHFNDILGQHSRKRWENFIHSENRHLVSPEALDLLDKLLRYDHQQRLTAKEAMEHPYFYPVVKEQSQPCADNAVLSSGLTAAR
Chain of UniProt Q96RI8 (whole entry, looked up): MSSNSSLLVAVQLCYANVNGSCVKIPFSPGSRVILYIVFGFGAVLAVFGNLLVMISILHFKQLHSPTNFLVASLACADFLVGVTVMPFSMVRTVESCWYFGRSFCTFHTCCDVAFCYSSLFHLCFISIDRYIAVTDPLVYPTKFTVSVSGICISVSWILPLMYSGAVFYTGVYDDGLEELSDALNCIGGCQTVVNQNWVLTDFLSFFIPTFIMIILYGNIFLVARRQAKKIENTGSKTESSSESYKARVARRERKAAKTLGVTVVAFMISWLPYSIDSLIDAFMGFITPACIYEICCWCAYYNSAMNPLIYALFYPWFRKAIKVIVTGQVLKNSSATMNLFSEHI
Chain of UniProt O43781 (whole entry, looked up): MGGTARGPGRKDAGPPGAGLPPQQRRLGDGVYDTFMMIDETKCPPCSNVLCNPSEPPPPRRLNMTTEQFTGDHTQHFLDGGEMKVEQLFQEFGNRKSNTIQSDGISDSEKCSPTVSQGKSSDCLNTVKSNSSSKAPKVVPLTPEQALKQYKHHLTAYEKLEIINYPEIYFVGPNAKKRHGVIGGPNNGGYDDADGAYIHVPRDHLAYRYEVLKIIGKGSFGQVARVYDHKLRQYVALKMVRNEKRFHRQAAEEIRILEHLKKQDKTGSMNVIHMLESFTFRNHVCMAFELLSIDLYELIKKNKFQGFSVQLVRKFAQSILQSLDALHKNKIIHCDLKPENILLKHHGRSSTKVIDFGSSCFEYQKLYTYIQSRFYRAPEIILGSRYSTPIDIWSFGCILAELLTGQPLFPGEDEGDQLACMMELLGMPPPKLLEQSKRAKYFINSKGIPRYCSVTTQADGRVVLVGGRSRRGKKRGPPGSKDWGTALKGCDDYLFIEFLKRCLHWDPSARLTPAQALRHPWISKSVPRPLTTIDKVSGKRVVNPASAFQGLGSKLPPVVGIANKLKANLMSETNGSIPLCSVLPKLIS

Study 1 — SMILES: CC(C)CN(C)c1nc(N)c(C(=O)N=C(N)N)nc1Cl; effect on: β-arrestin recruitment; mode: agonist; technique: PRESTO-Tango; tested at: 10 µM; reference: untreated; quantity: fold over basal
target = Probable G-protein coupled receptor 153 (GPR153, Homo sapiens, UniProt Q6NV75); result = 0.65
target = G-protein coupled receptor family C group 6 member A (GPRC6A, Homo sapiens, UniProt Q5T6X5); result = 0.31 fold
target = Trace amine-associated receptor 6 (TAAR6, Homo sapiens, UniProt Q96RI8); result = 0.81 fold
target = Prostaglandin E2 receptor EP2 subtype (PTGER2, Homo sapiens, UniProt P43116); result = 0.45
target = Vasopressin V1b receptor (AVPR1B, Homo sapiens, UniProt P47901); result = 0.49
target = Vasopressin V2 receptor (AVPR2, Homo sapiens, UniProt P30518); result = 0.8
target = Neuropeptide Y receptor type 2 (NPY2R, Homo sapiens, UniProt P49146); result = 0.65
target = G-protein coupled receptor 171 (GPR171, Homo sapiens, UniProt O14626); result = 0.91
target = CX3C chemokine receptor 1 (CX3CR1, Homo sapiens, UniProt P49238); result = 0.82

Study 2 — effect on: cell-free assay; technique: competition with immobilised ligand; tested at: 1 µM; quantity: remaining binding
Compound: CCCOc1ccc([C@@H]2[C@@H](C(=O)O)[C@H](c3ccc4c(c3)OCO4)CN2CC(=O)Nc2c(CC)cccc2CC)cc1
target = Serine/threonine-protein kinase PLK3 (PLK3, Homo sapiens, UniProt Q9H4B4); result = 88%
target = Myosin light chain kinase 2, skeletal/cardiac muscle (MYLK2, Homo sapiens, UniProt Q9H1R3); result = 93%
target = Serine/threonine-protein kinase TAO1 (TAOK1, Homo sapiens, UniProt Q7L7X3); result = 100%
target = Ribosomal protein S6 kinase alpha-1, C-terminal kinase domain (RPS6KA1, Homo sapiens, UniProt Q15418); result = 77%
target = Epidermal growth factor receptor (EGFR, Homo sapiens, UniProt P00533, G719C); result = 98%
target = Mitogen-activated protein kinase 11 (MAPK11, Homo sapiens, UniProt Q15759); result = 98%
target = Tyrosine-protein kinase JAK1, JH1 (JAK1, Homo sapiens, UniProt P23458); result = 100%
target = Phosphatidylinositol 4,5-bisphosphate 3-kinase catalytic subunit alpha isoform (PIK3CA, Homo sapiens, UniProt P42336, I800L); result = 71%
target = Casein kinase II subunit alpha' (CSNK2A2, Homo sapiens, UniProt P19784); result = 83%
target = NUAK family SNF1-like kinase 2 (NUAK2, Homo sapiens, UniProt Q9H093); result = 73%
target = Bone morphogenetic protein receptor type-2 (BMPR2, Homo sapiens, UniProt Q13873); result = 69%
target = NUAK family SNF1-like kinase 1 (NUAK1, Homo sapiens, UniProt O60285); result = 99%
target = Protein-tyrosine kinase 2-beta (PTK2B, Homo sapiens, UniProt Q14289); result = 97%
target = Homeodomain-interacting protein kinase 1 (HIPK1, Homo sapiens, UniProt Q86Z02); result = 79%
target = Serine/threonine-protein kinase NIM1 (NIM1K, Homo sapiens, UniProt Q8IY84); result = 81%

Study 3 — effect on: enzyme activity; mode: inhibitor; tested at: 0.5 µM; reference: control; quantity: remaining activity
Structure (SMILES): COc1cc2ncnc(Nc3ccc(OCc4ccccc4)cc3)c2cc1OC
target = Serine/threonine-protein kinase 16 (STK16, Homo sapiens, UniProt O75716); result = 106%
target = Dual specificity tyrosine-phosphorylation-regulated kinase 3 (DYRK3, Homo sapiens, UniProt O43781); result = 101%
target = Serine/threonine-protein kinase WNK3 (WNK3, Homo sapiens, UniProt Q9BYP7); result = 90.8%
target = Tyrosine-protein kinase ABL1 (ABL1, Homo sapiens, UniProt P00519); result = 98%
target = Homeodomain-interacting protein kinase 4 (HIPK4, Homo sapiens, UniProt Q8NE63); result = 100%
target = Mitogen-activated protein kinase kinase kinase kinase 4 (MAP4K4, Homo sapiens, UniProt O95819); result = 103%
target = Tyrosine-protein kinase receptor UFO (AXL, Homo sapiens, UniProt P30530); result = 94.8%
target = Calcium/calmodulin-dependent protein kinase type II subunit beta (CAMK2B, Homo sapiens, UniProt Q13554); result = 105%
target = Serine/threonine-protein kinase 17A (STK17A, Homo sapiens, UniProt Q9UEE5); result = 99.6%
target = Tyrosine-protein kinase Srms (SRMS, Homo sapiens, UniProt Q9H3Y6); result = 104%
target = 3-phosphoinositide-dependent protein kinase 1 (PDPK1, Homo sapiens, UniProt O15530); result = 103%
target = Ephrin type-B receptor 4 (EPHB4, Homo sapiens, UniProt P54760); result = 94.6%
target = Cyclin-dependent kinase 6, with cyclin D3 (CDK6, Homo sapiens, UniProt Q00534); result = 97.8%
target = Phosphorylase b kinase gamma catalytic chain, skeletal muscle/heart isoform (PHKG1, Homo sapiens, UniProt Q16816); result = 100%
target = Ribosomal protein S6 kinase alpha-6 (RPS6KA6, Homo sapiens, UniProt Q9UK32); result = 95.9%
target = Ephrin type-A receptor 4 (EPHA4, Homo sapiens, UniProt P54764); result = 98.5%
target = Cyclin-dependent kinase 4, with cyclin D3 (CDK4, Homo sapiens, UniProt P11802); result = 102%
target = Homeodomain-interacting protein kinase 2 (HIPK2, Homo sapiens, UniProt Q9H2X6); result = 111%
target = Testis-specific serine/threonine-protein kinase 2 (TSSK2, Homo sapiens, UniProt Q96PF2); result = 104%
target = Cyclin-dependent kinase 1, with cyclin B (CDK1, Homo sapiens, UniProt P06493); result = 89.9%
target = Ribosomal protein S6 kinase alpha-5 (RPS6KA5, Homo sapiens, UniProt O75582); result = 103%
target = Ephrin type-B receptor 1 (EPHB1, Homo sapiens, UniProt P54762); result = 101%
target = MAP kinase-activated protein kinase 3 (MAPKAPK3, Homo sapiens, UniProt Q16644); result = 102%
target = Tyrosine-protein kinase Blk (BLK, Homo sapiens, UniProt P51451); result = 88.2%

Study 4 — cell line: mouse MPNST tumor cells; technique: high-content immunofluorescence imaging; item: nuclear SOX9; tested at: 10 µM; time: 12 h; notes: mean of 2 replicates; reference: DMSO control; direction: higher = more nuclear SOX9; quantity: nuclear SOX9 intensity
Compound = COC(=O)C(Cc1ccc(OCCn2c(=O)sc3cc(C(=O)c4ccccc4)ccc32)cc1)C(=O)OC; result = 130 % of DMSO
Compound = CC(=O)SCC(Cc1ccccc1)C(=O)NCC(=O)OCc1ccccc1 (stereo not drawn); result = 104 % of DMSO
Compound = NCCc1ccc(O)c(O)c1; result = 95.2 % of DMSO and 88.8 % of DMSO
Compound = COc1c(C)cnc(Cn2cc(C#CCC(C)(C)O)c3c(Cl)nc(N)nc32)c1C; result = 59.6 % of DMSO
Compound = CC(COc1ccccc1)N(CCCl)Cc1ccccc1 (stereo not drawn); result = 103 % of DMSO
Compound = NC[C@@H]1O[C@H](O[C@H]2[C@@H](O)[C@H](O[C@@H]3[C@@H](O)[C@H](N)C[C@H](N)[C@H]3O[C@H]3O[C@H](CN)[C@@H](O)[C@H](O)[C@H]3N)O[C@@H]2CO)[C@H](N)[C@@H](O)[C@@H]1O; result = 99 % of DMSO
Compound = CCc1nn(CCCN2CCN(c3cccc(Cl)c3)CC2)c(=O)n1CCOc1ccccc1; result = 116 % of DMSO
Compound = C/C=C1\C(=O)C[C@H]2[C@@H]3CCC4=CC(=O)CC[C@]4(C)[C@H]3CC[C@]12C; result = 72.4 % of DMSO
Compound = CC(C)(C)NCC(O)COc1cccc2c1CCC(=O)N2 (stereo not drawn); result = 94.7 % of DMSO
Compound = O=C(CCCCCCC(=O)NO)NO; result = 120 % of DMSO
Compound = OC(CCN1CCCC1)(c1ccccc1)C1CCCCC1 (stereo not drawn); result = 132 % of DMSO
Compound = CCN1C(C)(C)CC(Oc2ccc(C(=O)Nc3ccc(NC(=O)Nc4cc(C(C)(C)C)on4)cc3)nc2)CC1(C)C; result = 136 % of DMSO
